Measurements collected from several papers.
Each line is one published result; not all experiments were run side by side. Values joined by “and” are separate records of one study, mostly repeats; a detail may differ. ± gives the spread as reported. In brackets after ≈: the same amount, converted by molar mass.

SMILES = CCn1c(C)c(CC(=O)N[C@@H](Cc2ccccc2)C(=O)N(C)c2cccc(Cl)c2)c2ccccc21; organism = HIV-1; test = viral infection; measurement = EC50; result = 470 ± 10 nM
SMILES = O=C(NCC(F)c1ccc(Cl)cc1Cl)c1cc(Cl)nnc1Oc1cccc(C2CC2)c1 (stereo not drawn); organism = Botrytis cinerea; test = fungal growth, inhibitor; test system = B05.10 wild type; conditions = 168 h; measurement = EC50; result = 7.8 ± 0.9 nM
SMILES = CC(C)n1ncc2c(C(=O)NCC(c3cccs3)N3CCOCC3)cc(-c3ccccc3)nc21 (stereo not drawn); organism = Mycobacterium tuberculosis; test = microbial growth; measurement = IC50; result = 750 nM
SMILES = Cc1ccc(CNC(=O)C(=O)c2c(C)nc3ccc(C)cn23)cc1; organism = Mycolicibacterium vaccae; test = microbial growth; test system = IMET10670; conditions = 2 mM; measurement = inhibition zone; result = 24 mm
SMILES = Cc1cc(C)c2cc(C(=O)NC3CCCCCC3)[nH]c2c1; organism = Mycobacterium tuberculosis; test = bacterial growth, inhibitor; test system = mmpL3-TetON; measurement = IC50; result = 50 nM
SMILES = c1ccc2c(c1)nc(CNCC13CC4CC(CC(C4)C1)C3)n2CC1CC1; organism = Streptococcus pneumoniae; test = growth curve; test system = ATCC 49619, THY broth; measurement = bactericidal concentration; result = 16 mg/L
SMILES = COc1ccc2nc(C)cc(OCC(=O)Nc3ccccc3OC)c2c1; organism = Mycobacterium tuberculosis; test = microbial growth; measurement = IC50; result = 3850 nM
SMILES = CCOc1cc(/C=N/NC(=O)c2ccccn2)ccc1OC(=O)CN1C(=O)CSC1=O; organism = Mycobacterium tuberculosis; test = microbial growth, resazurin; test system = H37RV; measurement = MIC; result = 2.26 µM (≈ 1 µg/mL)
SMILES = Cc1cc(Oc2nc(N3CC[C@@H](c4ccncc4)C3)ncc2F)[nH]n1; organism = Mycobacterium tuberculosis; test = OD; test system = H37Rv PurF CRISPRi knockdown; conditions = 0.000244 µM, added: anhydrotetracycline low; measurement = normalised growth; result = 99% and 100%
SMILES = COc1ccc(-c2nc(-c3cccc(NC(=O)Cc4ccc(F)cc4)c3)no2)cc1OC; organism = Mycobacterium tuberculosis; test = microbial growth; measurement = IC50; result = 1040 nM
SMILES = NC(=S)NN=Cc1ccc(OC(=O)CN2C(=O)CSC2=O)cc1.NNC(=O)c1ccncc1; organism = Mycobacterium tuberculosis; test = two-drug checkerboard; test system = H37Rv; conditions = concentration not given, unit not given; scale = lower means more synergy; measurement = FICI; result = 0.516
SMILES = Cc1ccc(CNC(=O)Cc2c(C)nc3ccc(C)cn23)cc1; organism = Mycolicibacterium vaccae; test = microbial growth; test system = IMET10670; conditions = 2 mM; measurement = inhibition zone; result = 22 mm
SMILES = CCC(CO)NCCNC(CC)CO.O=C(CN1C(=O)CSC1=O)Oc1ccc(C=NNC(=O)c2ccccn2)cc1Br; organism = Mycobacterium tuberculosis; test = two-drug checkerboard; test system = H37Rv; conditions = concentration not given, unit not given; scale = lower means more synergy; measurement = FICI; result = 2
SMILES = Cc1ccc(-c2nc3ccc(C)cn3c2C(=O)C(=O)NCc2ccc(N(C)C)cc2)cc1; organism = Mycolicibacterium vaccae; test = microbial growth; test system = IMET10670; conditions = 2 mM; measurement = inhibition zone; result = 19 mm
SMILES = Cc1ccc(N(C)C(=O)[C@H](Cc2ccccc2)NC(=O)Cc2c[nH]c3ccc(O)cc23)cc1; organism = HIV-1; test = viral infection; measurement = EC50; result = 33 ± 5 nM
SMILES = Cc1ccc(C2CC(C(F)(F)F)n3ncc(C(=O)NCc4ccc5c(c4)OCO5)c3N2)cc1 (stereo not drawn); organism = Mycobacterium tuberculosis; test = bacterial growth, inhibitor; test system = mmpL3-TetON; measurement = IC50; result = < 97 nM
SMILES = CC[C@H](C)[C@H](NC(=O)[C@@H]1CCCN1C(=O)CNC(=O)[C@H](CC(N)=O)NC(=O)CNC(=O)[C@H](CC(=O)O)NC(=O)[C@@H]1CCC(=O)O[C@H](C)[C@H](NC(=O)[C@@H](NC(=O)[C@H](Cc2ccccc2)NC(=O)[C@@H](NC(=O)[C@H](CCCCN)NC(=O)CNC(=O)[C@H](CC(=O)O)NC(=O)CNC(=O)[C@@H](NC(=O)CNC(=O)[C@H](CC(=O)O)NC(=O)[C@@H]2CCC(=O)O[C@H](C)[C@H](NC(=O)[C@@H](NC(=O)[C@H](CC(C)C)NC(=O)[C@H](CCCCN)NC(=O)[C@H](Cc3ccccc3)NC(=O)[C@H](CC(=O)O)NC(=O)CNC(=O)[C@H](CCCCN)NC(=O)[C@H](CC(C)C)NC(=O)[C@H](CO)NC(=O)CN)C(C)C)C(=O)N[C@@H](CCSC)C(=O)N[C@@H](CCCCN)C(=O)N[C@@H](C(C)C)C(=O)N3CCC[C@H]3C(=O)N2)C(C)C)C(C)C)[C@@H](C)O)C(=O)N[C@@H](C)C(=O)N[C@@H](CC(C)C)C(=O)NCC(=O)N1)C(=O)N[C@@H](Cc1ccc(O)cc1)C(=O)N[C@@H]1C(=O)N[C@@H]2C(=O)N[C@@H](CCC(N)=O)C(=O)N[C@@H](C)C(=O)N[C@@H](C(C)C)C(=O)NCC(=O)N[C@@H](CCC(=O)O[C@@H]2C)C(=O)N[C@H](C(=O)NCC(=O)NCC(=O)N[C@@H](CC(=O)O)C(=O)N[C@@H](CC(C)C)C(=O)N2CCC[C@H]2C(=O)N2CCC[C@H]2C(=O)N[C@@H](CC(C)C)C(=O)N[C@@H](Cc2ccccc2)C(=O)O)CCC(=O)O[C@@H]1C; organism = lymphocytic choriomeningitis virus; test = viral replication; measurement = IC50; result = > 100000 nM
SMILES = CC(C)CC(C(=O)N1CC2(CC1C#N)C(=O)Nc1ccccc12)N(C)C(=O)c1cc2c(F)cc(F)c(F)c2[nH]1 (stereo not drawn); organism = Human coronavirus 229E; test = cytopathic effect; test system = MRC5; conditions = 33.83 nM; measurement = inhibition; result = 100%
SMILES = NNC(=O)c1ccncc1.O=C(CN1C(=O)CSC1=O)Oc1ccc(C=NNC(=O)c2ccncc2)cc1; organism = Mycobacterium tuberculosis; test = two-drug checkerboard; test system = H37Rv; conditions = concentration not given, unit not given; scale = lower means more synergy; measurement = FICI; result = 1.5
SMILES = Cc1ccc2nc(C(F)(F)F)c(C(=O)NCc3ccc4c(c3)OCO4)n2c1; organism = Mycobacterium tuberculosis; test = bacterial growth, inhibitor; test system = mmpL3-TetON; measurement = IC50; result = 1740 nM
SMILES = Cc1ccc(NS(=O)(=O)c2c(C(=O)N3CCCCCC3)c(C)n(C)c2C)c(Cl)c1; organism = Human alphaherpesvirus 1; test = viral infection; test system = HaCaT; conditions = 33.33 µM, 36 h; scale = reference: untreated; measurement = infection; result = 104% and 108% and 130%

Repeated from above:
SMILES = CCOc1cc(/C=N/NC(=O)c2ccccn2)ccc1OC(=O)CN1C(=O)CSC1=O; organism = Mycobacterium tuberculosis; test = microbial growth, resazurin; test system = H37RV; measurement = MIC; result = 2.26 µM (≈ 1 µg/mL)
SMILES = COc1ccc(-c2nc(-c3cccc(NC(=O)Cc4ccc(F)cc4)c3)no2)cc1OC; organism = Mycobacterium tuberculosis; test = microbial growth; measurement = IC50; result = 1040 nM
SMILES = CC[C@H](C)[C@H](NC(=O)[C@@H]1CCCN1C(=O)CNC(=O)[C@H](CC(N)=O)NC(=O)CNC(=O)[C@H](CC(=O)O)NC(=O)[C@@H]1CCC(=O)O[C@H](C)[C@H](NC(=O)[C@@H](NC(=O)[C@H](Cc2ccccc2)NC(=O)[C@@H](NC(=O)[C@H](CCCCN)NC(=O)CNC(=O)[C@H](CC(=O)O)NC(=O)CNC(=O)[C@@H](NC(=O)CNC(=O)[C@H](CC(=O)O)NC(=O)[C@@H]2CCC(=O)O[C@H](C)[C@H](NC(=O)[C@@H](NC(=O)[C@H](CC(C)C)NC(=O)[C@H](CCCCN)NC(=O)[C@H](Cc3ccccc3)NC(=O)[C@H](CC(=O)O)NC(=O)CNC(=O)[C@H](CCCCN)NC(=O)[C@H](CC(C)C)NC(=O)[C@H](CO)NC(=O)CN)C(C)C)C(=O)N[C@@H](CCSC)C(=O)N[C@@H](CCCCN)C(=O)N[C@@H](C(C)C)C(=O)N3CCC[C@H]3C(=O)N2)C(C)C)C(C)C)[C@@H](C)O)C(=O)N[C@@H](C)C(=O)N[C@@H](CC(C)C)C(=O)NCC(=O)N1)C(=O)N[C@@H](Cc1ccc(O)cc1)C(=O)N[C@@H]1C(=O)N[C@@H]2C(=O)N[C@@H](CCC(N)=O)C(=O)N[C@@H](C)C(=O)N[C@@H](C(C)C)C(=O)NCC(=O)N[C@@H](CCC(=O)O[C@@H]2C)C(=O)N[C@H](C(=O)NCC(=O)NCC(=O)N[C@@H](CC(=O)O)C(=O)N[C@@H](CC(C)C)C(=O)N2CCC[C@H]2C(=O)N2CCC[C@H]2C(=O)N[C@@H](CC(C)C)C(=O)N[C@@H](Cc2ccccc2)C(=O)O)CCC(=O)O[C@@H]1C; organism = lymphocytic choriomeningitis virus; test = viral replication; measurement = IC50; result = > 100000 nM
